Measured values from different studies.
Parts stem from different laboratories: compare values within a part only.

Series 1
Target: Histone acetyltransferase KAT6A, both winged helices, GST fusion (KAT6A, Homo sapiens, UniProt Q92794, residues 1-181)
Technique: protein binding microarray
Molecule type: double-stranded DNA, one strand shown
Matrix: in vitro
Concentration: not given
Notes: 8-mer, flanks averaged, mean of 2 arrays, mostly near background
Relative to: not given
Reading: higher = stronger binding
Residues (chain): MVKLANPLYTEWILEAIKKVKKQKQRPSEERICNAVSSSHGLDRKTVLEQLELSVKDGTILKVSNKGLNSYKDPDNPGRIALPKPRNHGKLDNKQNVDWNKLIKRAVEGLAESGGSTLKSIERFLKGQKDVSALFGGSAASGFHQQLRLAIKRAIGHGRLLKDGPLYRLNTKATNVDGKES
`CGCGGAGC` gave an E-score of 0.277.
For `CCGCCGAA`, the E-score was 0.293.
For `ACGTTGTC`, the E-score was -0.166.
For `ACGTCCAG`, the E-score was -0.0963.
The E-score of `TCTGCTAA` is reported as -0.189.
The E-score of `AGTTCCTG` is reported as -0.122.
`AAAAAGCC` has an E-score of 0.124.
With `CAACGAGG` the E-score was -0.0761.
The E-score of `GGGCCGAA` is reported as 0.0407.
The E-score of `ATTACGGC` is reported as 0.229.
With `ATTATAAC` the E-score was 0.00924.
With `AGTCTAGC` the E-score was -0.0444.
With `AAAGGCTC` the E-score was -0.00613.
`CAAATTGG` gave an E-score of -0.15.
`CGGACGGA` gave an E-score of 0.212.
For `GGCCATAC`, the E-score was -0.0111.
`TAACGTCA` gave an E-score of -0.0369.
With `GGGCACAA` the E-score was -0.0291.
The E-score of `AACGCAAG` is reported as -0.00169.
`GGTATCGA` gave an E-score of 0.0445.
`GGAATATA` gave an E-score of -0.01.
`ATGAATCG` gave an E-score of 0.0109.
`ACCAGGCG` has an E-score of -0.0753.
The E-score of `AACCCGTC` is reported as 0.257.

Series 2
Target: RNA binding protein fox-1 homolog 2, RRM domain, GST-SBP tag (RBFOX2, Homo sapiens, UniProt O43251-10, residues 100-194)
Technique: RNA Bind-n-Seq
Molecule type: RNA
Matrix: in vitro
Concentration: 365 nM
Notes: natural RNA segment, single round, ends assumed
Relative to: no-protein control
Reading: higher = stronger binding
Residues (chain): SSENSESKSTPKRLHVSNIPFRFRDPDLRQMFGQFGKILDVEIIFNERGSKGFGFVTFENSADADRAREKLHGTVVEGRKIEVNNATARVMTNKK
Under “RBNS enrichment (R)”, `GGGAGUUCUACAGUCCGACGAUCAAUUGGCUUUUGAAUCAAAGAAUAGGGAGACAAUCUAAAAAAUAUCUUAGGUUGGAGAUGACAGAAAUAUGAUUGAUUUGAAGUGGAAAAAGAAAUUCUGUUAAUGUUAAUGGAAUUCUCGGGUGCCAA` is recorded as 0.827.
`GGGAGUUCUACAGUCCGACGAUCAAGAGCAGGGCAGGAAGACAGUUCAGGAGAUGGGUGUCAAGUUUUCUCUUGGUUGAUUUCAUUCCCUUGCAUCUUUCCCCUGUGCUGACAGGGGGCAGAAGGCACAACCAUGGAAUUCUCGGGUGCCAA` — result for “RBNS enrichment (R)”: 0.341.
`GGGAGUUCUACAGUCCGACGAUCAUGAUUUUAAGAAUUUGGCUUAAAAAUUGAUUGAUACAACGUAUUAUUUGUACUAAGAAGUAACUUGACCCAAAACACCUUUUAUGUUUGCUUAGGGUAUAUUUUUUCAGUGGAAUUCUCGGGUGCCAA` — result for “RBNS enrichment (R)”: 0.472.
`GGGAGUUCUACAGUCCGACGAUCGAACCAGCGCCCCAUAGGCUAAGAUCUAUCAUUUACAGGUAGAAGUGGGGCCCGCACUCAGAACUGUGAGGAGGGUGGAGAGUGGUCCUGACCCUCAGUUCCCAGAGGACUGGAAUUCUCGGGUGCCAA` — result for “RBNS enrichment (R)”: 0.716.
`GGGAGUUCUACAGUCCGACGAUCCUCUCCACCUCCACCCCACCAGAGAGUAGCGAUUGCUUUUUAGUCUAUUUUGUUGUCAAUACAAUUUAAUAUCAAUCAGAGUAAUCCUUUGUACAUUGAGAGGAGGGGCUUGGAAUUCUCGGGUGCCAA` — result for “RBNS enrichment (R)”: 0.364.
`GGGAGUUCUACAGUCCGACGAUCCAAAAUUCUUUAUUUCAGAAUGCAACAAUAGAUUCCAUUAAUAUAGACUCAAGAUCAAAACAGCAUACCUGCUAAGCUAAGAUAGAUGGUGUUGAUUCCACUGGGUUUUGUGGAAUUCUCGGGUGCCAA`: “RBNS enrichment (R)” 0.447.
For `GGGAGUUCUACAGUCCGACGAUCUUUCCACACACUGACCCUUCAGAGUUGGUUCUUUGUUUAUCAGGCCUCCUGACCCUCCCUGCACUUAGCCCUUCCAAGGGACAUCCAGUGGAGCACUGGCAUCUCGAGCUUGGAAUUCUCGGGUGCCAA`, “RBNS enrichment (R)” read 0.275.
`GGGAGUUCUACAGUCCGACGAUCCUCUGACCCCAGAGCUCUGAAGAAUGCUCUUAUCAGAAGAUAGGAAAUGAAAAUAUCCUUUUUUAAAAUAUGUGGAAGUAAUUUGGGUAUAAUUAGUUUUUUUCUACCUUUGGAAUUCUCGGGUGCCAA`: “RBNS enrichment (R)” 1.24.
For `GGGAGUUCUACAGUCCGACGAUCUCUCCUGAAGGACCUGGGUCCCUUCCCCCGGAGCCUGUGCCUUGGGGCAGGGGAACCCCAAAGUAAGGUGCCAUGGUGUUUGGCACUCAAGAUUUAGCUCACCCUUGAACUGGAAUUCUCGGGUGCCAA`, “RBNS enrichment (R)” read 0.22.
Under “RBNS enrichment (R)”, `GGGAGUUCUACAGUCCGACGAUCGCCUCCUUGACGUGGACAAUCACUAGACUCAGUGCUCUGAGAAAAUCUGCUAUUUCUGUUGAAUGGGUCAGUCUUAAAGCUUUAAAAUUCACAUAGGUGGAGUUUCCCAUUGGAAUUCUCGGGUGCCAA` is recorded as 0.34.
For `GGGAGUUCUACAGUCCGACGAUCUUGUUACAGGCUGUGCAGUGCAACAAUUCCAGCAAAAAUACCCUAUCCCCGCACUUAGUCAUUCGUGGUAACUAACAAUUUUGAAAUACUCAUAUAAAAUGAACAGGAAAUGGAAUUCUCGGGUGCCAA`, “RBNS enrichment (R)” read 0.673.
Under “RBNS enrichment (R)”, `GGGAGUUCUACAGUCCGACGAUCUCCUGUCCUUCCCCUCAUCUCUUCCUGGGGUUUCAAGACCAAAGGCAAUGAGGAGAUACACGAUUCUGAAAGGUCAUCUGAAGCCUGAAACCCCUAGAGCAACCCCCUCUUGGAAUUCUCGGGUGCCAA` is recorded as 0.381.

Series 3
Target: Ras GTPase-activating protein-binding protein 1, full length (G3BP1, Homo sapiens, UniProt Q13283)
Chain of UniProt Q13283 (whole entry, looked up): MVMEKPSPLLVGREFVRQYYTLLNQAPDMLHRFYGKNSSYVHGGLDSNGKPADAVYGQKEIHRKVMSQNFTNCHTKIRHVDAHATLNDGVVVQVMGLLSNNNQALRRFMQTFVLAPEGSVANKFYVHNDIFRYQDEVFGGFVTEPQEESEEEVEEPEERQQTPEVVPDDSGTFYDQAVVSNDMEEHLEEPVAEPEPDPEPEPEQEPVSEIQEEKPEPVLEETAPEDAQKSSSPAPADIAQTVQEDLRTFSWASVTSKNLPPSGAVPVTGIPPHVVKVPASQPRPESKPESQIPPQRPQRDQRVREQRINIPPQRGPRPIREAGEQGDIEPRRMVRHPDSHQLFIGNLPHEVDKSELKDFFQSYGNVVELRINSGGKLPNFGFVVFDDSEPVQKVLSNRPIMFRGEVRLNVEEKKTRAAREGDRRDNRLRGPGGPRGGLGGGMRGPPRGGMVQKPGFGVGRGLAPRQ
Technique: RNA Bind-n-Seq
Molecule type: RNA
Matrix: in vitro
Concentration: 200 nM
Notes: whole 134-nt RNA, ends assumed
With: 150 mM LiCl
Relative to: input library
Reading: higher = stronger binding
Each molecule: 7-deaza-guanosine replaces G
For `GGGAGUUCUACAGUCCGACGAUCUGGCCCUGGUGGCAUGCGGGGAGGAAGAGGUGGCCUCAUGGAUCGUGGUGGUCCCGGUGGAAUGAUCAGAGGUGGCCGUGGUGGAGACAGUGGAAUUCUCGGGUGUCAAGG`, the log2 enrichment was 0.128.
The log2 enrichment of `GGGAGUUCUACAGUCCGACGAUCUAACUUUAGAGGAGGAUCUGAUGGAUAUCGCAGUGGACGUGGAUUUGGGGAUGGCUAUAAUGGGUAUGGAGGAGGACCUGGAGGUGGCAAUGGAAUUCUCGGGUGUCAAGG` is reported as -0.0955.
`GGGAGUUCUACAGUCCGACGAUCCAAGUCCUGUGCUACACAUCGUAUGUACCGAAUCGGGAAAAAGGGUUUGGGUGGGAAAGUAUUAUGUUACGCCGUUCGGAUCUGCACUUCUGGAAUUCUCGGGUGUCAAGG` gave a log2 enrichment of -0.54.
For `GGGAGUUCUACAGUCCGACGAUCUAACUUUAGAGGAGGAUCUGAUGGAUAUGGCAGUGGACGGGGAUUUGGGGAUGGCUAUAAUGGGUAUGGAGGAGGACCUGGAGGUGGCAAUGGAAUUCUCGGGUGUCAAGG`, the log2 enrichment was -0.517.
The log2 enrichment of `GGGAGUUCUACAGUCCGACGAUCCCUGUGCUACACAUCGUAUGUACCGAAUCGGCCCCCCCGGGGCCCCCCCGGGCCCCCCCGGAAAGUAUUAUGUUACGCCGUUCGGAUCUGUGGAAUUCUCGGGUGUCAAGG` is reported as -0.521.
With `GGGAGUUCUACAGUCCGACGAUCUGGCCCUGGUGGCAUGCGGGGAGGAAGAGGUGGCCUCAUGGGUCGUGGUGGUCCCGGUGGAAUGUUCAGAGGUGGCCGUGGUGGAGACAGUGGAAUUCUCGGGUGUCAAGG` the log2 enrichment was 0.257.
With `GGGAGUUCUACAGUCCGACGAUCUUCCGCUGUCUUUUCUGUCUACAGUUUGCGAUCCCCGCGUCCAGGAUGGAGCAGCUGAACGAACUGGAGCUGCUGAUGGAGAAGAGUUUUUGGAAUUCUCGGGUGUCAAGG` the log2 enrichment was -2.58.
With `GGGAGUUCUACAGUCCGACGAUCCCUCAAGUCCUGUGCUACACAUCGUAUGUACCGAAUCGGGCGGGCGGGGCGGGAAAGUAUUAUGUUACGCCGUUCGGAUCUGCACUUCCAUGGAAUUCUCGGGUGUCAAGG` the log2 enrichment was -0.16.
With `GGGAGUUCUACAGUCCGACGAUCGUCCUGUGCUACACAUCGUAUGUACCGAAUCGGGAAAAAGGGAAAGGGAAAAAAAGGGAAAGUAUUAUGUUACGCCGUUCGGAUCUGCACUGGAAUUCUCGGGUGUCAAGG` the log2 enrichment was 0.158.
`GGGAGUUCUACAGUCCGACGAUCCCUCAAGUCCUGUGCUACACAUCGUAUGUACCGAAUCGGCCGGCCGGGCCGGAAAGUAUUAUGUUACGCCGUUCGGAUCUGCACUUCCAGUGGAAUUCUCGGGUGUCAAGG` has a log2 enrichment of 0.428.
For `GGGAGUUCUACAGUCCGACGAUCUGGCCCUGGUGGCAUGCGGGGAGGAAGAGGUGGCCCCAUGGAUCGUGGUGGUCCCGGUGGAAUGUUCAGAGGUGGCCGUGGUGGAGACAGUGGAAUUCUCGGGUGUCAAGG`, the log2 enrichment was 0.14.

Series 4
Target: Sal-like protein 4, full length isoform A (SALL4, Homo sapiens, UniProt Q9UJQ4, residues 1-1053)
Chain of UniProt Q9UJQ4 (whole entry, looked up): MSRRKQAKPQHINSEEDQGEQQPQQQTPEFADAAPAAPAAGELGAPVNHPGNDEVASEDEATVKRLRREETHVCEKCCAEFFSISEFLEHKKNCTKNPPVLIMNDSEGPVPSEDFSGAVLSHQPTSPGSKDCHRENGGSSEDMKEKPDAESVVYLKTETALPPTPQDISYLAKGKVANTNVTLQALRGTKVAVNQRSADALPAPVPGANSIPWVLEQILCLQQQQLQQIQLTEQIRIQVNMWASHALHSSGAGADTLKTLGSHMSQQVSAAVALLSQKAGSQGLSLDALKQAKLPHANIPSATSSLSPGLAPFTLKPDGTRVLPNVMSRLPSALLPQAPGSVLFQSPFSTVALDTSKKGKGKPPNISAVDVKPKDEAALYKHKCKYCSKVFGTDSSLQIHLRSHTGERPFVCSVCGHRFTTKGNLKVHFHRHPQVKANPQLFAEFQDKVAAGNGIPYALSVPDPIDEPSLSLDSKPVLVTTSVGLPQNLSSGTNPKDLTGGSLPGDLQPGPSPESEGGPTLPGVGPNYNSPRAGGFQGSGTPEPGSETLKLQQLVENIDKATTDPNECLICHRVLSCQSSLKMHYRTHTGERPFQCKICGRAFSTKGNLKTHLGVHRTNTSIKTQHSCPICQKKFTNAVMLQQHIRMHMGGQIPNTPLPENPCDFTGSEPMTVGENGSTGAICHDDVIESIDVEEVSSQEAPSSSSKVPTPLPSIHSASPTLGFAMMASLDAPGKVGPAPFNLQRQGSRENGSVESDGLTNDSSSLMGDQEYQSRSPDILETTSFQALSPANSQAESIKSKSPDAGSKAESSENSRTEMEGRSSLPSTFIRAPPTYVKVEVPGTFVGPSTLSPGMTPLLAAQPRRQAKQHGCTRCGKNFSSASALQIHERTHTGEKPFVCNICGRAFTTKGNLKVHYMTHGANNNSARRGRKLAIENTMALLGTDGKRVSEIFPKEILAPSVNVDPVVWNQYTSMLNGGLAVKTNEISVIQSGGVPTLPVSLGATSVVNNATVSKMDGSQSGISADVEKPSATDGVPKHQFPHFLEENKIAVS
Technique: universal PBM
Molecule type: double-stranded DNA, one strand shown
Matrix: in vitro
Concentration: 600 nM
Notes: 8-mer, flanks averaged, mean of replicates
Reading: higher = stronger binding
With `GTGCGCAC` the E-score was -0.0838.
With `CGATTTCA` the E-score was 0.134.
With `AGAGGAAC` the E-score was -0.0763.
`CAGCCTTA` has an E-score of 0.00766.
With `CCACGACG` the E-score was -0.231.
`ACACCTCT` has an E-score of -0.215.
`AGTGCTCC` has an E-score of -0.224.
`AGTTCCGG` gave an E-score of -0.187.
`GTACCGCA` gave an E-score of -0.121.
`ACAAGCCG` has an E-score of -0.188.
`ACATTTCC` has an E-score of 0.0726.
`CGCAACTA` has an E-score of 0.0265.
For `GCTCATGA`, the E-score was -0.0741.
The E-score of `CCTGCTCG` is reported as -0.245.
For `AGTCGCTA`, the E-score was -0.0554.
The E-score of `ACCTTACG` is reported as 0.0671.
`GCCTCTCA` has an E-score of -0.273.

Some of these lines once more (series 1):
For `ACGTCCAG`, the E-score was -0.0963.
With `ATTATAAC` the E-score was 0.00924.
With `CAACGAGG` the E-score was -0.0761.
`TAACGTCA` gave an E-score of -0.0369.
The E-score of `GGGCCGAA` is reported as 0.0407.
With `AGTCTAGC` the E-score was -0.0444.
`CGCGGAGC` gave an E-score of 0.277.
